Measurements gathered from unrelated publications.
Every numbered part comes from another study and shows a few of its results, in no order. Changes are numbered by the printed parent chain.

Block 1
Target: CCNB3, cyclin fold, Cln2 fusion (human)
Method: yeast growth competition, sequencing
Matrix: yeast
Setting: weak parent motif
Reference: not given
Direction: higher = stronger binding
Parent: INSM1 docking peptide (human); PKAIRKLHFEDEV
Variant | normalised enrichment score
E12M | 0.868
H8C | 1.02
E10K | -0.0283
L7Q | -0.181
E12Y | 0.37
K2F | 0.56
A3D | -0.109
D11R | 0.105
L7G | 0.00641
K6I | 0.504
E12R | 0.468
K6D | 0.108
D11V | 0.16
L7V | 0.167
K6W | 0.231
F9S | -0.0788
L7R | 0.254
F9W | 0.528
L7E | -0.000781

Block 2
Target: Interferon regulatory factor 7, full length, phosphomimetic (IRF7, Homo sapiens, UniProt Q92985, residues 1-503, S471D/S472D/S475D/S476D/S477D/S483D/S484D/S487D)
Method: protein-binding microarray
Molecule type: double-stranded DNA, one strand shown
Matrix: in vitro
Tested at: 2200 nM top
Setting: 60-bp whole probe
Together with: salmon DNA 0.4 mg/ml
Reference: random background probes
Direction: higher = stronger binding
All sequences stand within: GCCTAGCAC … GTCTTGATTCGCTTGACGCTGCTG
Target sequence (chain): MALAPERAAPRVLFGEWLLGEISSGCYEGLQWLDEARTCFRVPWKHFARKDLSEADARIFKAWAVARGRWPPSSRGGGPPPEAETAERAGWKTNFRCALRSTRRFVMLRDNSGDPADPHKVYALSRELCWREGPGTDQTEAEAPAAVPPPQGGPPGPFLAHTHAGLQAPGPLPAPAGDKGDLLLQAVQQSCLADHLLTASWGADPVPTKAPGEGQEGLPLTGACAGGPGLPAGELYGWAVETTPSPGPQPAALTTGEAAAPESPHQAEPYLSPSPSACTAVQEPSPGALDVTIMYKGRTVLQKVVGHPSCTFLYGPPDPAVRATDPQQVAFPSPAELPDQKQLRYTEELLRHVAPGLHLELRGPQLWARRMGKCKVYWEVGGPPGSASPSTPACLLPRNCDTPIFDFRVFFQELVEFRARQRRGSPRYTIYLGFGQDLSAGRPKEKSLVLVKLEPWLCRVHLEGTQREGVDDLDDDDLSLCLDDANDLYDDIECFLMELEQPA
Sequence | fitted relative affinity
TCACATATTTGTTTCCAACTGTGCTAG | 1.93 z-score
CAGAATCCAGCTCAGGTTGTGTGCTAG | 0.155 z-score
GACGGTCTCCTTATCCTGCCGTGCTAG | 0.884 z-score
TTATGACTGGGGTTTCGGTTAGTGCTA | 3.89 z-score
GACGGTTTCGTTATCCTGACGTGCTAG | 7.64 z-score
TTAGGTCTCCTTTTCTTTTAGTGCTAG | 1.72 z-score
TTAGGACTGGGGACTGGGATAGTGCTA | -1.04 z-score
CCATGTTGCAGACTCGAAGGGTGCTAG | 0.414 z-score
TCAGTTCTAAATATCTTACTGTGCTAG | 0.611 z-score
CCCTAATTCTGATTGGATAAGTGCTAG | 0.655 z-score
TTAGATTCCAGATTCGATTAGTGCTAG | 2.01 z-score
GACAATTTCAGTTCCGAGACGTGCTAG | 1.86 z-score
CCTTCCATCACTTTCCACTTGTGCTAG | 5.6 z-score
TTCTACTTCTGTTTTTGCTTGTGCTAG | 2.72 z-score
TTAGGACTGGTTCTCGGTTAGTGCTAG | 0.635 z-score
GACCATTTCAGTTTCGAGACGTGCTAG | 5.06 z-score
TCACCTCTCACCTCGGCACTGTGCTAG | 1.32 z-score
TGTCTGTCTGTCACCCGGACGTGCTAG | 0.607 z-score
TTAGGTTTCTGTTCCGGTTAGTGCTAG | 4.65 z-score
CTAGTTTTACTTTCTATCTCGTGCTAG | 5.44 z-score
TCATTTTTTTTTTGGAAACTGTGCTAG | 1.78 z-score
TCTCTTTTGGCTTTCCTTTAGTGCTAG | 3.4 z-score
AGTCCGTGGATTGACCAGATGTGCTAG | 0.121 z-score

Block 3
Target: Hepatocyte nuclear factor 3-alpha (Foxa1, Mus musculus, UniProt P35582, residues 1-468, full length assumed)
Method: EMSA with sequencing
Molecule type: double-stranded DNA, one strand shown
Matrix: in vitro
Tested at: 10 and 20 nM
Setting: whole designed probe, mean of two concentrations, ends assumed
Reference: negative control set to 0
Direction: higher = stronger binding
All sequences stand within: GTGAGCGGTGCCCATTGATGGGGAAC … TTTCACTGGGATCGTGGGGAC
Target sequence (chain): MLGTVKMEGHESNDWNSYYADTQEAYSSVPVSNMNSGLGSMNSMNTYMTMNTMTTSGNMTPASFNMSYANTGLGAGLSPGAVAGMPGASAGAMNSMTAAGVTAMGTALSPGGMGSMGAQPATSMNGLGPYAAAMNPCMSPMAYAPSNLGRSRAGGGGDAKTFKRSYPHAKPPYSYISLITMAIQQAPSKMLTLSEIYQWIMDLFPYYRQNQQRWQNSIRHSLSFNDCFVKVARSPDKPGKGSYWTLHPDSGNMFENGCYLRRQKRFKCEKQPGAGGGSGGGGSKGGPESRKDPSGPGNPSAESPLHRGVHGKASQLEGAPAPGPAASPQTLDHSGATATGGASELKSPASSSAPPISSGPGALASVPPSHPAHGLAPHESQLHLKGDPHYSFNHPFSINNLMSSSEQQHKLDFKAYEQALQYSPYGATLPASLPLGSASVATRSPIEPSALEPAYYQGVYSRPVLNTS
Sequence | normalised bound fraction [ratio]
ATCTTCCCCCTCTTCCTTGCCCCACCAGCTCACCTTCCCGGGTTATTTGCACAAAGGAAAATAAATAAAGCCGGCATTCGTTAACGCAGTTCACGCGCATACTGCTGTTTGCTCTGGATCTAACATGGTCCTTTGGCGAGGCGTGGCTCCGGGAGAGCAAAGCACCGTGTCAGGGCCATGATCCGGGCTCGCC | 0.373
GTGTTCAGGTGGCCAGATGCCAGGCGCCTCCCTGTTATTTGTATTAGTCCTTCACCTAGAAACAACAGATGCTGTGGTGACTCAGGGAGACATGTTTACAGTAGGAGAGACTAAGAGATAGCTTCCTGGAGGCTAAAGTGATGGCACACACAGGAACTGAGACTTCCATAACTTTTCTGGAACTGGAGTAGAA | 0.271
ATCTTCCCCCTCTTCCTTGCCCCACCAGCTCACCTTCCCGGGTTATTTGCAGATAGGAAAATAAATAAAGCCGGCATTCGTTAACCCTCTTCTGGCGCAAACTGCTGTTTGCTCTGGTCCTTTGGCGAGATGAATCATGCGCCAGGCTCCGGGAGAGCAAAGCACCGTGTCAGGGCCATGATCCGGGGTGGCC | 0.385
ATCTTCCCCCTCTTCCTTGCCCCACCAGCTCACCTACGGGGGTTATTTGCAGATAGGAAAATAAATAAAGCCGGCATTCGTTAACCCTCTTCACGCGCATACTGCTGTTTGCTCTGGATCTAACATGGTCCTTTGGCGAGGCGTGGCTCCGGGAGAGCAAAGCACCGTGTCAGGGCCATGATCCGGGGTGGCC | 0.345
CTTCTTAGCCCTGGTGCTATTTCTTGGCTTCCACACATTCTGTACAATTGCAGCCCTGACAGCTAATTTAGCTTCACTGTTGGTGAGTTTCTAGATTGCTTTTGCTGCTGTCCAAATGATTCAAGGTGCTGAATGACGCCATCTGTATGTTGCTAGAGGCTGAGAGGGGGCTGGGAGGAAGCCTTAAGTCAAG | -0.056
CTTCCAAATTACATGAGATTTCTGTTTCTACATTTTCTTTGTCTTGGCATATTTGATGATGTGCATTGAGTCATTATATAGCTTCTAAGAATCTGTTTACTTTTTACTATGTTAACAATGAGTTCTTGGGGATATTCCTGTTTGAAAATCACTGTACGTGTAGTAAATCTATTTCTGGGATCTCCATTCCCAT | 0.423
TAACCGGAGCGTGCACACCCGCCTGCGAGGCTGACCCGAGCGCGTCCCACCCAAGGTCGCCCAGCCCGGCCGGCGTTTACTTTTCAAAGGTCGTGTGTACACAGTCTGAGCCGGAGCTGCCCCTTCACTTCTGGAGCCTCGCCCAACTTCTCACCCTCGGCTCGCCCGCCGGCGCAGCCCCTGGGAGTTCCGT | 0.221
ATCACAATTGTATATAAACAATGTTTTGAATTAAAGAAGTAATGTATTTGCAGAAATTGCTTCCCTATTGTACCACATGATTCTTATTCAAAGTAATCTCCAATAGTATACAGTGTTATAATGACTAAAAACAAACAAATGCCATTTTATATCATAGGATGTAATTTTATTTAAGTAGTAAAGAACTAATTTC | 0.47

Block 4
Target: Histone acetyltransferase KAT6A, winged helix 1, GST fusion (KAT6A, Homo sapiens, UniProt Q92794, residues 1-85)
Method: protein binding microarray
Molecule type: double-stranded DNA, one strand shown
Matrix: in vitro
Tested at: not given
Setting: 8-mer, flanks averaged, mean of 2 arrays, mostly near background
Reference: not given
Direction: higher = stronger binding
Construct (chain): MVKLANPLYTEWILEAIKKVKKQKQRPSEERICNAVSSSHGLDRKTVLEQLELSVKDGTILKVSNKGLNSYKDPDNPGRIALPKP
Sequence | E-score
TCCGAGCA | -0.0503
ACCGGGGG | 0.267
AATTAGAG | -0.129
AGTCTGTA | -0.103
GGCGGGGA | 0.346
AGAGTATA | -0.143
ATTGAAGC | -0.0327
TACAAGTA | -0.274
AACTGCCG | 0.227
CCTTTAGC | -0.0266
CATTTATC | -0.25
GACTTCTA | -0.068
GGAAGTCA | 0.0692
GAGAGAAC | -0.257
AATTCGAG | -0.14
ACCATCAG | -0.0104
CCGTTCTC | 0.00446
GGAAGACA | -0.122

Block 5
Target: ABI1, truncated, D143A, DHFR fusion (Arabidopsis thaliana)
Method: DHFR PCA, deep sequencing
Matrix: yeast
Setting: methotrexate growth selection, single substitutions
Together with: (+)-ABA 0.032 µM
Reference: wild-type fitted maximum
Direction: higher = stronger binding
Parent: PYL1, truncated, DHFR fusion (Arabidopsis thaliana); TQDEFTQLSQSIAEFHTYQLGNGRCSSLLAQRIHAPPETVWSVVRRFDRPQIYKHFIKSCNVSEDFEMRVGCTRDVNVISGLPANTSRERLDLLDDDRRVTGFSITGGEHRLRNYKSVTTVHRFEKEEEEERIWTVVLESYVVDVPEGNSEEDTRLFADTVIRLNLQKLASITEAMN; partner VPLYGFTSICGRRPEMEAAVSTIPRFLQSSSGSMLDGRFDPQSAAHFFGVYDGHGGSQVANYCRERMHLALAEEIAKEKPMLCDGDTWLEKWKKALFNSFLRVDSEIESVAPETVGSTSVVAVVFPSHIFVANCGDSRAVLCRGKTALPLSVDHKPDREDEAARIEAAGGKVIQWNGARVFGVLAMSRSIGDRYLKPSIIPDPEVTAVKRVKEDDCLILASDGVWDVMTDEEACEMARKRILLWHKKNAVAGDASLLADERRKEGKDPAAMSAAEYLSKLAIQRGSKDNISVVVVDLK
Variant | relative binding score [%]
Q7G | 21.9
S59K | 0.821
H34S | 16.4
F66H | 7.71
T120I | 5.34
L166H | 3.94
Q51G | 20.1
P83K | 14.2
T101R | -2.31
Q10N | 27.8
F15Q | -8.36
P50Y | -0.126
G21Y | -2.43
H34M | 41.3
L20G | 22.8
R123V | -1.23

Single results of other studies
Molecule | target | assay | test system | conditions | how to read | endpoint | result
PhoQ, residues 284 288 289 292 302 303 ALASRC | PhoP, residues 12 14 15 18 19 NHFRA (Escherichia coli, UniProt P23836) | Sort-seq, item: YFP reporter | E. coli | PhoQ-PhoP variant library, together with: 10 µM Mg2+ | reference: high Mg2+ state, higher = stronger signaling | fold induction | 1.39

For quick reference, copied from above (block 4):
Sequence | E-score
GGAAGACA | -0.122
AACTGCCG | 0.227
GGAAGTCA | 0.0692
GAGAGAAC | -0.257
ACCGGGGG | 0.267
ATTGAAGC | -0.0327
AATTCGAG | -0.14
